{"data": "Published values gathered from unrelated publications", "note": "Lines come from different studies, so protocols differ."}
{"SMILES": "CN[C@H](CC(C)C)C(=O)N[C@H]1C(=O)N[C@@H](CC(N)=O)C(=O)N[C@H]2C(=O)N[C@H]3C(=O)N[C@H](C(=O)N[C@H](C(=O)O)c4cc(O)cc(O)c4-c4cc3ccc4O)[C@H](O)c3ccc(c(Cl)c3)Oc3cc2cc(c3O[C@@H]2O[C@H](CO)[C@@H](O)[C@H](O)[C@H]2O[C@H]2C[C@](C)(NCc3ccc(OCc4cn(CC(=O)N[C@H](C(=O)N[C@@H](CCN)C(=O)N[C@H]5CCNC(=O)[C@H]([C@@H](C)O)NC(=O)[C@H](CCN)NC(=O)[C@H](CCN)NC(=O)[C@H](CC(C)C)NC(=O)[C@@H](CC(C)C)NC(=O)[C@H](CCN)NC5=O)[C@@H](C)O)nn4)c(OC)c3)[C@H](O)[C@H](C)O2)Oc2ccc(cc2Cl)[C@H]1O", "organism": "Enterococcus faecium", "system": "VRE vanB", "MIC": "0.76 µM"}
{"SMILES": "CC[C@H](C)[C@H](NC(=O)[C@H](CCCNC(=N)N)NC(=O)[C@H](CO)NC(=O)[C@H](Cc1ccc(O)cc1)NC(=O)[C@@H](NC(=O)[C@@H](NC(=O)[C@H](C)NC(=O)CNC(=O)[C@H](CCCCN)NC(=O)[C@H](CCCCN)NC(=O)CCNC(=O)CCCCCNC(=O)[C@H](CCCNC(=N)N)NC(=O)CCCCCNC(=O)[C@H](CCCNC(=N)N)NC(=O)[C@H](CCCNC(=N)N)NC(=O)CCCCCNC(=O)[C@H](CCCNC(=N)N)NC(=O)[C@H](CCCNC(=N)N)NC(=O)CCCCCNC(=O)[C@H](CCCNC(=N)N)NC(=O)[C@H](CCCNC(=N)N)NC(=O)CCCCCNC(=O)[C@@H](N)CCCNC(=N)N)C(C)C)[C@@H](C)O)C(=O)N[C@@H](CO)C(=O)NCC(=O)N[C@@H](CCC(N)=O)C(=O)N[C@@H](Cc1ccc(O)cc1)C(=O)N[C@@H](CCCCN)C(=O)O", "organism": "Escherichia coli", "system": "ATCC 25922, Mueller-Hinton broth", "conditions": "together with: ZnCl2 8 µM", "MIC": "6 µM"}
{"SMILES": "CCCCCCCCCCCCCC(=O)N[C@H]1C(=O)N[C@@H](CN)C(=O)N[C@@H](CO)C(=O)N[C@@H](Cc2ccc(O)cc2)C(=O)O[C@H]1C", "organism": "Staphylococcus aureus", "system": "SH1000", "conditions": "together with: phosphatidylcholine, molar ratio 0.5", "MIC": "2 µg/mL"}
{"SMILES": "CC[C@H](C)[C@@H]1NC(=O)[C@H](CC(C)C)NC(=O)[C@@H](NC(=O)[C@H](CCC(N)=O)NC(=O)[C@H](CCCCN)NC(=O)[C@H](CC(N)=O)NC(=O)[C@H](Cc2ccc(O)cc2)NC(=O)[C@@H]2CCC(=O)NCC(=O)NCC(=O)NCC(=O)NCC(=O)N[C@@H](CCCNC(=N)N)C(=O)NCC(=O)N[C@@H](Cc3ccc(O)cc3)C(=O)N2)CSSC[C@@H](C(=O)O)NC(=O)[C@H](Cc2ccccc2)NC1=O", "organism": "Streptococcus pyogenes", "assay": "broth microdilution", "system": "sensitive clinical isolate", "conditions": "overnight, 37 °C", "MIC": "> 128 µg/mL"}
{"SMILES": "OB(O)c1cnn(-c2cccc(Cl)c2)c1", "organism": "Enterobacter cloacae", "assay": "bacterial growth", "system": "AmpC overproducer clinical isolate", "conditions": "without cefotaxime", "MIC": "> 2050 µg/mL"}
{"SMILES": "[O-][N+]1=C(c2ccc(Cl)cc2)C2=NCCCN2c2ccccc21", "organism": "Prevotella spp.", "MIC": "0.06 to 1 µg/mL"}
{"SMILES": "CC[C@H](C)[C@@H]1NC(=O)[C@@H]([C@@H](C)O)NC(=O)CNC(=O)[C@H](CC(=O)O)NC(=O)CNC(=O)[C@H](CC(=O)O)NC(=O)CNC(=O)[C@H]2CCCCN2C(=O)[C@@H](NC(=O)[C@H](CC(=O)O)NC(=O)/C=C/CCCCCCCCCC(C)C)CNC(=O)[C@@H]2CCCN2C1=O", "organism": "Enterococcus faecium", "assay": "broth microdilution", "system": "daptomycin-resistant isolate, Mueller-Hinton broth, Mg2+ 10 mg/L", "conditions": "16 h, together with: Ca2+ 1.0 mM", "MIC": "32 µg/mL"}
{"SMILES": "CC(=O)N[C@@H](CC(C)C)C(=O)N[C@H]1CSSC[C@@H](C(=O)N2CCC[C@H]2C(N)=O)NC(=O)[C@H]([C@@H](C)O)NC(=O)[C@H](C(C)C)NC(=O)[C@H]([C@@H](C)O)NC(=O)CNC(=O)[C@H](CCCCN)NC(=O)[C@H](Cc2ccccc2)NC(=O)[C@H](Cc2ccc(O)cc2)NC(=O)[C@H](CCCCN)NC(=O)[C@H](CCC(=O)O)NC(=O)[C@H](Cc2ccccc2)NC(=O)[C@H](CCCNC(=N)N)NC(=O)[C@H](CCCCN)NC(=O)[C@H](CC(C)C)NC(=O)[C@H](CC(=O)O)NC(=O)[C@@H]2CCCN2C(=O)[C@H](CCCCN)NC(=O)[C@H](C(C)C)NC(=O)[C@H](CCCCN)NC(=O)[C@H](CCCCN)NC(=O)[C@H]([C@@H](C)O)NC1=O", "organism": "Pseudomonas fluorescens", "assay": "broth dilution", "system": "CGMCC strain", "conditions": "24 h", "MIC": "> 40 µM"}
{"SMILES": "CC(C)C[C@@H](NC(=O)[C@@H](CC(C)C)NC(=O)[C@@H](CCCCN)NC(=O)[C@@H](CCCCNC(=O)[C@@H](CC(C)C)NC(=O)[C@@H](CC(C)C)NC(=O)[C@@H](CCCCNC(=O)[C@@H](CC(C)C)NC(=O)[C@@H](CCCCN)NC(=O)[C@@H](CCCCNC(=O)[C@@H](CC(C)C)NC(=O)[C@H](N)CCCCN)NC(=O)[C@@H](CC(C)C)NC(=O)[C@H](N)CCCCN)NC(=O)[C@@H](CC(C)C)NC(=O)[C@@H](CCCCN)NC(=O)[C@@H](CCCCNC(=O)[C@@H](CC(C)C)NC(=O)[C@H](N)CCCCN)NC(=O)[C@@H](CC(C)C)NC(=O)[C@H](N)CCCCN)NC(=O)[C@@H](CC(C)C)NC(=O)[C@@H](CC(C)C)NC(=O)[C@@H](CCCCNC(=O)[C@@H](CC(C)C)NC(=O)[C@@H](CCCCN)NC(=O)[C@@H](CCCCNC(=O)[C@@H](CC(C)C)NC(=O)[C@H](N)CCCCN)NC(=O)[C@@H](CC(C)C)NC(=O)[C@H](N)CCCCN)NC(=O)[C@@H](CC(C)C)NC(=O)[C@@H](CCCCN)NC(=O)[C@@H](CCCCNC(=O)[C@@H](CC(C)C)NC(=O)[C@H](N)CCCCN)NC(=O)[C@@H](CC(C)C)NC(=O)[C@H](N)CCCCN)C(N)=O", "organism": "Enterobacter cloacae", "assay": "broth microdilution", "system": "blaNDM", "conditions": "20 h, 37 °C", "MIC": "16 µg/mL"}
{"SMILES": "CC(=O)N[C@@H](CC(C)C)C(=O)N[C@H]1CSSC[C@@H](C(=O)N2CCC[C@H]2C(N)=O)NC(=O)[C@H]([C@@H](C)O)NC(=O)[C@H](C(C)C)NC(=O)[C@H]([C@@H](C)O)NC(=O)CNC(=O)[C@H](CC(C)C)NC(=O)[C@H](Cc2ccccc2)NC(=O)[C@H](Cc2ccc(O)cc2)NC(=O)[C@H](CC(C)C)NC(=O)[C@H](CCCCN)NC(=O)[C@H](Cc2ccccc2)NC(=O)[C@H](CCCNC(=N)N)NC(=O)[C@H](CCC(N)=O)NC(=O)[C@H](CC(C)C)NC(=O)[C@H](CCCCN)NC(=O)[C@@H]2CCCN2C(=O)[C@H](CCCCN)NC(=O)[C@H](C(C)C)NC(=O)[C@H](CCCCN)NC(=O)[C@H](Cc2ccc(O)cc2)NC(=O)[C@H]([C@@H](C)O)NC1=O", "organism": "Pseudomonas fluorescens", "assay": "broth dilution", "system": "CGMCC strain", "conditions": "24 h", "MIC": "2.5 to 5 µM"}
{"SMILES": "C[N+]1=C2C(c3ccc(Cl)cc3)=[N+]([O-])c3ccccc3N2CCC1", "organism": "Prevotella spp.", "MIC": "4 to 16 µg/mL"}
{"SMILES": "C=C(NC(=O)c1csc(-c2nc3c(cc2O)-c2nc(cs2)C(=O)NC(C(C)O)C(=O)NC(=C(C)OC)c2nc(cs2)C(=O)NC2c4nc(cs4)C(=O)NC(COC(=O)c4c5c6c(cccc6n4O)COC(=O)C(OC4CC(C)(O)C(N(C)C)C(C)O4)C2OC5)c2nc-3cs2)n1)C(N)=O (stereo not shown)", "organism": "Staphylococcus aureus", "system": "MRSA strain 2, vancomycin-induced", "conditions": "20 generations", "MIC": "0.0156 µg/mL"}
{"SMILES": "CSCC[C@H](NC=O)C(=O)N[C@@H](CCCNC(=N)N)C(=O)N[C@H](C(=O)NCC(=O)N[C@@H](CC(N)=O)C(=O)N[C@@H](C)C(=O)N[C@@H](CC(N)=O)C(=O)NCC(=O)N1CCN(c2cc3c(cc2F)c(=O)c(C(=O)O)cn3C2CC2)CC1)[C@@H](C)O", "organism": "Enterobacter cloacae", "system": "clinical isolate", "MIC": "64 µM"}
{"SMILES": "CC(C)CCCCCCCCC/C=C/C(=O)N[C@@H](CC(=O)O)C(=O)N[C@H]1CNC(=O)[C@@H]2CCCN2C(=O)[C@H](C(C)C)NC(=O)[C@@H](CN)NC(=O)CNC(=O)[C@H](CC(=O)O)NC(=O)CNC(=O)[C@H](CC(=O)O)NC(=O)[C@H](CC(=O)O)NC(=O)[C@H]2CCCCN2C1=O", "organism": "Staphylococcus aureus", "assay": "broth microdilution", "system": "VISA LIM strain 2, Mueller-Hinton broth, Mg2+ 10 mg/L", "conditions": "16 h, together with: Ca2+ 1.0 mM", "MIC": "8 to 16 µg/mL"}
{"SMILES": "O=[N+]([O-])c1ccc(C2=[N+]([O-])c3ccccc3N3CCCN=C23)cc1", "organism": "Prevotella spp.", "MIC": "0.06 to 0.125 µg/mL"}
{"SMILES": "CC[C@H](C)[C@H](NC(=O)[C@H](C)NC(=O)CNC(=O)[C@H](C)NC(=O)[C@H](CCCCN)NC(=O)[C@H](CO)NC(=O)[C@H](C)NC(=O)[C@H](CCSC)NC(=O)CN)C(=O)N[C@@H](C)C(=O)NCC(=O)N[C@@H](CCCCN)C(=O)N[C@H](C(=O)N[C@@H](C)C(=O)N[C@@H](CCCCN)C(=O)N[C@H](C(=O)N[C@@H](C)C(=O)N[C@@H](CC(C)C)C(=O)N[C@@H](CCCCN)C(=O)N[C@@H](C)C(=O)N[C@@H](CC(C)C)C(N)=O)C(C)C)[C@@H](C)CC", "organism": "Escherichia coli", "system": "3538, ampicillin-resistant, minimal salts medium", "conditions": "18 h, 37 °C", "MIC": "10 µg/mL"}
{"note": "Some of these lines once more:"}
{"SMILES": "CC[C@H](C)[C@@H]1NC(=O)[C@H](CC(C)C)NC(=O)[C@@H](NC(=O)[C@H](CCC(N)=O)NC(=O)[C@H](CCCCN)NC(=O)[C@H](CC(N)=O)NC(=O)[C@H](Cc2ccc(O)cc2)NC(=O)[C@@H]2CCC(=O)NCC(=O)NCC(=O)NCC(=O)NCC(=O)N[C@@H](CCCNC(=N)N)C(=O)NCC(=O)N[C@@H](Cc3ccc(O)cc3)C(=O)N2)CSSC[C@@H](C(=O)O)NC(=O)[C@H](Cc2ccccc2)NC1=O", "organism": "Streptococcus pyogenes", "assay": "broth microdilution", "system": "sensitive clinical isolate", "conditions": "overnight, 37 °C", "MIC": "> 128 µg/mL"}
{"SMILES": "OB(O)c1cnn(-c2cccc(Cl)c2)c1", "organism": "Enterobacter cloacae", "assay": "bacterial growth", "system": "AmpC overproducer clinical isolate", "conditions": "without cefotaxime", "MIC": "> 2050 µg/mL"}
